Published values of several laboratories.
Every numbered part comes from another study and shows a few of its results, in no order.

Sample 1
Target: Interferon regulatory factor 7, full length, phosphomimetic (IRF7, Homo sapiens, UniProt Q92985, residues 1-503, S101K/S471D/S472D/S475D/S476D/S477D/S483D/S484D/S487D)
UniProt Q92985, sequence (whole entry, unmodified, looked up): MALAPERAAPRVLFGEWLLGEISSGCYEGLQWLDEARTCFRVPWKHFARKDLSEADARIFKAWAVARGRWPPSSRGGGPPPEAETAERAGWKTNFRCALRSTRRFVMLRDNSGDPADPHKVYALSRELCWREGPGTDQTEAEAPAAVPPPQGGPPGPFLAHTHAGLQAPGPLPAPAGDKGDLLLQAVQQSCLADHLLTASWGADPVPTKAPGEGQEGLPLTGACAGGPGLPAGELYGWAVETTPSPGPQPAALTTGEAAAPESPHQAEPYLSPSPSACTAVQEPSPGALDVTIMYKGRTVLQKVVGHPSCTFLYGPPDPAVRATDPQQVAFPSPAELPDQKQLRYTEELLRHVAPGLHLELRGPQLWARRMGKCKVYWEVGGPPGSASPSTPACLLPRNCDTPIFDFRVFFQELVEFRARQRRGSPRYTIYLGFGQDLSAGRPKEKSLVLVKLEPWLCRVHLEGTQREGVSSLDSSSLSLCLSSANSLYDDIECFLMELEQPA
Technique: protein-binding microarray
Form: double-stranded DNA, one strand shown
Sample: in vitro
Concentration: 250 nM
Notes: 60-bp whole probe
Together with: salmon DNA 0.4 mg/ml
Relative to: random background probes
Direction: higher = stronger binding
All sequences stand within: GCCTAGCAC … GTCTTGATTCGCTTGACGCTGCTG
| Oligonucleotide | log fluorescence |
| --- | --- |
| TTAAGTATCCTACTGCTTTAGTGCTAG | 0.401 z-score |
| GACGGACTGCCACTGCTGACGTGCTAG | -0.817 z-score |
| CACGGTTTCGGACTGGGGACGTGCTAG | 4.27 z-score |
| TTAGGTCTAGGTCTCGGTTAGTGCTAG | 1.07 z-score |
| TACGGTTTCGGGACTGGGGACGTGCTA | 3.72 z-score |
| TTAGATTTGAGTATCGATTAGTGCTAG | 1 z-score |
| TTAGGACTGATTCTCCTTTAGTGCTAG | 0.81 z-score |
| TTATGTTTCCTACTGCTTTAGTGCTAG | 1.41 z-score |
| GACGGAATGGGGTATCGGGACGTGCTA | -0.47 z-score |
| TTAGGTTTCTACACTGGGTTAGTGCTA | 0.6 z-score |
| TTAGAACCGAGTATCGATTAGTGCTAG | 0.99 z-score |
| TTAGGACTGGACACTCGGTTAGTGCTA | -0.656 z-score |
| TTAGATTTCAATATCGATTAGTGCTAG | 0.305 z-score |
| TTAGGTTTCGGACTGGGTTAGTGCTAG | 3.96 z-score |
| TTAGAATTCAGTTCCGATTAGTGCTAG | 0.982 z-score |
| TTAGGTTTCGGTTTCGGTCAGTGCTAG | 14.2 z-score |
| TCAATTGTGGTTTTCATACTGTGCTAG | 0.526 z-score |
| CTAAAACTCTTTATTTAAGCGTGCTAG | 0.502 z-score |
| GCAACACTCACCATGGCTAGGTGCTAG | -0.0809 z-score |

Sample 2
Target: RING finger protein unkempt homolog, zinc fingers 1-6, SBP tag (UNK, Homo sapiens, UniProt Q9C0B0, residues 30-357)
UniProt Q9C0B0, sequence (30-357, looked up): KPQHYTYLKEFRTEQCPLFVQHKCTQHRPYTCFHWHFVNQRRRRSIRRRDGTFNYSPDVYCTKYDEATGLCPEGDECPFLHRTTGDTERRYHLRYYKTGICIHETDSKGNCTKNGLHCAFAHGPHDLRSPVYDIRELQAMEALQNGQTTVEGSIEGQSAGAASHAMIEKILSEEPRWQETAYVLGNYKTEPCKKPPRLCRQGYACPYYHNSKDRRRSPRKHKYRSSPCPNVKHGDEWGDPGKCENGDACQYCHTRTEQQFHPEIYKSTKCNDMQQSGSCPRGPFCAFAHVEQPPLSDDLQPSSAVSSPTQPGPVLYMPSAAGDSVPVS
Technique: RNA Bind-n-Seq
Form: RNA
Sample: in vitro
Concentration: 100 nM
Notes: RNA with constant flanks, vertebrate orthologous sites, ends assumed
Relative to: input RNA pool
Direction: higher = stronger binding
All sequences stand within: GGGAGUUCUACAGUCCGACGAUC … CAACAGAGGAUUGAGCAUCA
| Oligonucleotide | bound/input enrichment [ratio] |
| --- | --- |
| CUGUUGUUAAGCACUGUGUUCCAGACUGUGUCUGACUUUCGUGUAACCUAGGAGAUUUUAUUGUUUUAUUUUAAUGAAACCCUGCUUGCCGCAGAGCAGCCGGGAGAGCAGCGUCCACCA | 0.607 |
| CCGCCAAUUCCCUCAUUGGUCGGGCUGCGCACAUCGCUGUUCUUGAUUCAGAGAUCUUCCUGGAGAAGUUCUUCCUCGUUGCGGGUCUCAAGUUCUUUCAGUAGAAAUGUAUUGGAAUCA | 0.261 |
| AUUGGAUGCAGUGUAACACUAUCCAAGGCAGUGACUUCAGCUUUAUAUACAUAUAAAAUAUAGUUAGUUUUAAAAUUAUUGACAUUUAUUUAAACUUUUAGAUUGGAUUGUUUGCUAUUG | 2.26 |
| UCAGUCUUCCACGUAGGGUUGGCCUCAAAUCUAUAGGAUUUAUGACAAAUGUAUUAUAUCUAGUUAAGUUGAGUUUAAUAUUUUUUUAUUAGCCUGUAAAUAAAGAUGGCAUCUUCUACA | 0.694 |
| GGGAUAUAUUGAAUAGUAUUAAACAUUUUUGUCUUCCUUUACCUUUUAUCCCUUAAUAUCUAGUCUACUUUUUUAAAUUUCAGACUUCAGUACUCUUUGAAUUGAUAAUUCCAAUUUUCA | 0.874 |
| GGUAGUCUGCGUAGGGGUGAGCAUUAACUUAUAAAGGAAUGAAAUGCUAAAAAAUCCUAUUAGUACUAAGUUUAGUGGGAGAAUUUACAUAAACUCUUUUUACAUAAUUCUAAAAUGAAA | 0.57 |
| UAUAAUUAUGAAAAUCUAAAGGAUUUUUAAUGUUUAAUUUCCCCCAGCAUCUCUAUUAAGACCUCUUUUUUCCAGGCAGAUCAUUCAGAGUGUGCGAGUGUGUGUGCACAUGUUACAAAG | 0.591 |
| UCCCCGUUACCCCUAAAGUAGAACAUUUUUUAAAUUGUGUUGCCACCACUUCUAAAAAUUUAGCAAUAUUAGAAUAGUACACUAAUGAAGUAAGAAAUUUUGCUUGUUAUUUUGCAAACC | 4.79 |

Sample 3
Target: Prothrombin, mature alpha-thrombin (F2, Homo sapiens, UniProt P00734)
Technique: aptamer microarray, sandwich
Form: DNA with 2'F-ANA
Sample: in vitro
Concentration: 200 nM
Notes: whole 15-mer aptamer, many near background
Together with: Cy3 exosite-II aptamer, 400 nM
Direction: higher = stronger binding
Oligonucleotide: GGTTGGTGTGGTTGG
| Modification | mean fluorescence intensity [a.u.] |
| --- | --- |
| 2'F-ANA at 2 4 5 6 7 8 9 11 13 14 15 | 50.6 |
| 2'F-ANA at 2 3 4 6 9 10 13 15 | 172 |
| 2'F-ANA at 3 5 7 8 9 10 11 13 14 | 112 |
| 2'F-ANA at 1 2 3 6 14 15 | 66.7 |
| 2'F-ANA at 5 6 10 11 12 13 15 | 50.4 |
| 2'F-ANA at 2 5 10 11 12 13 14 | 45.8 |
| 2'F-ANA at 6 8 11 12 13 14 | 188 |
| 2'F-ANA at 1 3 6 7 9 12 13 14 | 90.7 |
| 2'F-ANA at 1 4 5 6 8 10 | 53.8 |
| 2'F-ANA at 1 2 3 4 5 7 10 12 13 | 47.4 |
| 2'F-ANA at 1 4 5 6 10 11 13 14 | 54.4 |
| 2'F-ANA at 2 3 5 6 7 8 11 12 13 14 | 57 |
| 2'F-ANA at 1 5 6 7 8 10 | 72.9 |
| 2'F-ANA at 2 3 11 12 13 14 | 472 |
| 2'F-ANA at 1 9 11 12 14 | 64 |
| 2'F-ANA at 5 7 9 11 | 79.8 |
| 2'F-ANA at 1 3 7 8 10 13 | 76.7 |
| 2'F-ANA at 2 3 6 9 11 15 | 646 |
| 2'F-ANA at 3 6 7 10 11 13 14 15 | 327 |
| 2'F-ANA at 1 6 7 9 11 12 13 15 | 199 |
| 2'F-ANA at 3 5 7 8 11 12 13 | 203 |
| 2'F-ANA at 1 2 5 7 11 12 13 | 76.6 |
| 2'F-ANA at 1 3 4 7 12 13 14 | 84.3 |
| 2'F-ANA at 3 5 6 8 10 12 14 15 | 51.6 |

Sample 4
Target: RNA binding protein fox-1 homolog 2, RRM domain, GST-SBP tag (RBFOX2, Homo sapiens, UniProt O43251-10, residues 100-194)
Technique: RNA Bind-n-Seq
Form: RNA
Sample: in vitro
Concentration: 365 nM
Notes: natural RNA segment, single round, ends assumed
Relative to: no-protein control
Direction: higher = stronger binding
All sequences stand within: GGGAGUUCUACAGUCCGACGAUC … UGGAAUUCUCGGGUGCCAA
Construct (chain): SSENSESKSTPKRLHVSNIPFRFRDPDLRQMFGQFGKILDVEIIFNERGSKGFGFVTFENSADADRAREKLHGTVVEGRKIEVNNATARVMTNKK
| Oligonucleotide | RBNS enrichment (R) |
| --- | --- |
| UUUUUCUGUAUAUUAACUUGGGGGAUAUCGUUAAUAUUUAGGAUAUAAGAUUUGAGGUCAGCCAUCUUCAAAAAAGAAAAAAAAAUUGACUCAAGAAAGUACAAGUAAAC | 0.822 |
| AACUUUGUAACUUAUUGUAGUUAGAAAUUGUAACUUUGAUAUUGAAUUCUCUUGCCUUCAACAAGCACACUGACAGAGAAAAAAUGCUACUGUCUGUUGGUUCCAAUAUU | 0.267 |
| CAACCAAGAUCUGCCUGACUAAAAGAAGCCACCUCAGCGCAGUGGAACGGGGCCCAGGGGGAGGCAGGAGAGGAGGGUUCCGGUCCCAUGUCACCUUCUCAUUUGCUGUG | 0.771 |
| UCAAGUCGCAUAUGCUGUACUGUUCCUCCUGCAAAUGUGGGGAAAGAAGAGGGAGAUACUAGAGGAACUGAGGCUCCACCCAUUCAUUCAGUUGCUCUAAGCACCAGAGG | 0.457 |
| GAAGUUUAGUUUAAUGUUAGUGCAGUGACGGGAAAUACACAUUAUGCUAAUGUUGAUGACAGAAUUUAUUUGGUUGCCUUGUGUGUUAAUUGAAUGCAUACCUAAUUGUA | 1.26 |
| UAUAGCAUUUAUGGUAAUCAUAUUAGACUUCUGUUUUCAAUCUCGUAUAGAAGUCUUCAUGAAAUGCUAUGUCAUUUCAUGUCCUGUGUCAGUUUAUGUUUUGGUCCACU | 0.263 |
| UGCCCGACUCCAGCUGCCCAAGGACCUUUGUGUAAGGUGGCCUCAACUGUCUGGUUUUCUUUUUUUCUUUCUUUUUAACAGUGUUUUGUAGAUUUCAGAUGACUAUGCAG | 0.483 |
| UGGCAGAAGUGUAGCAGCGUUACACAUGUGUGCGAAGCAGAUCGCAGGUUCCACGCCAUCUGCAUGGCCUGCAGGAGCUUCUGCUGCUGACCCCAUGCUGAGUGGCCAGU | 0.234 |

Repeated from above (sample 2):
| Oligonucleotide | bound/input enrichment [ratio] |
| --- | --- |
| AUUGGAUGCAGUGUAACACUAUCCAAGGCAGUGACUUCAGCUUUAUAUACAUAUAAAAUAUAGUUAGUUUUAAAAUUAUUGACAUUUAUUUAAACUUUUAGAUUGGAUUGUUUGCUAUUG | 2.26 |
| UCAGUCUUCCACGUAGGGUUGGCCUCAAAUCUAUAGGAUUUAUGACAAAUGUAUUAUAUCUAGUUAAGUUGAGUUUAAUAUUUUUUUAUUAGCCUGUAAAUAAAGAUGGCAUCUUCUACA | 0.694 |
| GGGAUAUAUUGAAUAGUAUUAAACAUUUUUGUCUUCCUUUACCUUUUAUCCCUUAAUAUCUAGUCUACUUUUUUAAAUUUCAGACUUCAGUACUCUUUGAAUUGAUAAUUCCAAUUUUCA | 0.874 |
| GGUAGUCUGCGUAGGGGUGAGCAUUAACUUAUAAAGGAAUGAAAUGCUAAAAAAUCCUAUUAGUACUAAGUUUAGUGGGAGAAUUUACAUAAACUCUUUUUACAUAAUUCUAAAAUGAAA | 0.57 |
| UAUAAUUAUGAAAAUCUAAAGGAUUUUUAAUGUUUAAUUUCCCCCAGCAUCUCUAUUAAGACCUCUUUUUUCCAGGCAGAUCAUUCAGAGUGUGCGAGUGUGUGUGCACAUGUUACAAAG | 0.591 |
